# Results of several laboratories.
# Parts stem from different laboratories: compare values within a part only.

# Sample 1 — technique: universal PBM; molecule type: double-stranded DNA, one strand shown; matrix: in vitro; concentration: 600 nM; reading: higher = stronger binding
# Target: Sal-like protein 4, full length isoform A (SALL4, Homo sapiens, UniProt Q9UJQ4, residues 1-1053)
# Sequence of UniProt Q9UJQ4 (whole entry, looked up): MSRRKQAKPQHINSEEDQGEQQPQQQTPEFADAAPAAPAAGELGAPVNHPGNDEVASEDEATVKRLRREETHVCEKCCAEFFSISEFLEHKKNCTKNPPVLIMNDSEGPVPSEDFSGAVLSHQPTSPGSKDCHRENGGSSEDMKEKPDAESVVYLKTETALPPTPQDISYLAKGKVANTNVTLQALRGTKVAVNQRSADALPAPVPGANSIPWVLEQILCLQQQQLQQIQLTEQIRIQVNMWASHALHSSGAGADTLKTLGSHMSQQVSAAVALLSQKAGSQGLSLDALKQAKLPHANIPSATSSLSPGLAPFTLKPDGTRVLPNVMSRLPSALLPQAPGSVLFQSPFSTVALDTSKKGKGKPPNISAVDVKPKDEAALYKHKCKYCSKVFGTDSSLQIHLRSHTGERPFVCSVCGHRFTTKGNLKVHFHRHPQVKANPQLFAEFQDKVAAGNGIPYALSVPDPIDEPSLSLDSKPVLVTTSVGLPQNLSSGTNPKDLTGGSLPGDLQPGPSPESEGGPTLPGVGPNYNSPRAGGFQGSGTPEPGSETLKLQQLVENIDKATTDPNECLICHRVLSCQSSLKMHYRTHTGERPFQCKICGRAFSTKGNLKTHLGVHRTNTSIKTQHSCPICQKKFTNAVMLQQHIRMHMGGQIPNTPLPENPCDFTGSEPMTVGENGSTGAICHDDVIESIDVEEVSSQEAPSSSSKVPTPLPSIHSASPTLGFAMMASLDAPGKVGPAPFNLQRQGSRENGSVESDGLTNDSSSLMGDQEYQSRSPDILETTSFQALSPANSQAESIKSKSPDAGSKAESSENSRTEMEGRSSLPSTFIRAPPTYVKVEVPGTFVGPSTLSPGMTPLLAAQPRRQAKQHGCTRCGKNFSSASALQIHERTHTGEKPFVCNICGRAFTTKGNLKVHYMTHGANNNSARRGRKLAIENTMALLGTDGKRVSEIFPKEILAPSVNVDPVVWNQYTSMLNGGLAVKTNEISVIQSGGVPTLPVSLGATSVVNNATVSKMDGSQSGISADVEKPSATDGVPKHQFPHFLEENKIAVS
# Setting: 8-mer, flanks averaged, mean of replicates
Sequence,E-score
ATCTAATA,0.336
AACCTACG,-0.0302
AAGTTGCG,-0.0711
ATGCGTCA,0.0622
ACAAGTCA,0.0367
CCCGAGTC,-0.159
TGTTTCAA,0.272
GGTACGAC,-0.237
CCCGGCCA,-0.359
AGTGTGCA,0.0254
AGTCGACC,-0.205
ACGACTTG,-0.0538
GACCCGAC,-0.28
ACCCCCGA,0.0275
CTCGTCGA,-0.127
AAGATGGC,0.0355
ACATAGGG,-0.078
GCGTGTTA,0.0906
CACACAAA,0.0918
CTCGAGGA,-0.18
CCGGCCTA,-0.135
CTATAGCC,-0.0656
CAAGGGAC,-0.228
ATCCCATG,-0.0938
CAAAAGAG,0.0246

# Sample 2 — technique: protein-binding microarray; molecule type: double-stranded DNA, one strand shown; matrix: in vitro; concentration: 250 nM; setting: 60-bp whole probe; together with: salmon DNA 0.4 mg/ml; relative to: random background probes; reading: higher = stronger binding; constant ends, left off below: GCCTAGCAC … GTCTTGATTCGCTTGACGCTGCTG
# Target: Interferon regulatory factor 5, full length, phosphomimetic (IRF5, Homo sapiens, UniProt Q13568-2, residues 1-514, K96S/S451D/S453D/S456D/S462D)
Sequence,log fluorescence
GACGGTATCCTGATCCTGACGTGCTAG,-0.121 z-score
TCAATTGGTTGAACATGACTGTGCTAG,0.121 z-score
TCATTTTTCCCTCTGGAAAAGTGCTAG,1.05 z-score
CCTTTTTTGTTGTTTTTTGGGTGCTAG,1.35 z-score
TTATATATCAGACTGGATTAGTGCTAG,0.442 z-score
GACGGTTTCTACTATCGGGACGTGCTA,3.34 z-score
GGCGGTTCCGGTTTCGGGACGTGCTAG,4.34 z-score
GACGAACTGGGGTTACGAGACGTGCTA,-0.499 z-score
TTAGGTTTCGACTATCCGTTAGTGCTA,7.83 z-score
TTAGGTTTCAGTATCGATTAGTGCTAG,9.22 z-score
TTAGGACTGCTTTTCCTTGAGTGCTAG,-0.0725 z-score
TGGCCTCTAGGTTTTCTGAAGTGCTAG,-0.178 z-score
TCAAATATGAGACTGGGACTGTGCTAG,-0.176 z-score
TTAGATCTCAGACTGGATAAGTGCTAG,-0.233 z-score
TCACTAATGTTTTTTAAACTGTGCTAG,0.573 z-score
TTAGATATCGGGTTTCGATGAGTGCTA,6.39 z-score
TTAGGACAGGGGTTTCGGTTAGTGCTA,7.13 z-score
TTGAATCTCCCATTATATTTGTGCTAG,0.643 z-score
TTAAATTTCGGGTATCGATTAGTGCTA,8.46 z-score
ATAGGTCTCCTTCTCCTTTAGTGCTAG,-0.126 z-score
TTAGGTCTCGCTCTCGGTTAGTGCTAG,0.452 z-score
GACGGTTTCGGGTATCGTGACGTGCTA,7.79 z-score
TTAGGTATCGGTATCGGATAGTGCTAG,8.06 z-score
TCAGCTTTGCTTCCTGCACTGTGCTAG,0.119 z-score
TTAGGTATCGGGTTTCGGTTGGTGCTA,7.99 z-score

# Sample 3 — technique: protein binding microarray; molecule type: double-stranded DNA, one strand shown; matrix: in vitro; concentration: not given; relative to: not given; reading: higher = stronger binding
# Target: Histone acetyltransferase KAT6A, winged helix 2, GST fusion (KAT6A, Homo sapiens, UniProt Q92794, residues 85-181)
# Setting: 8-mer, flanks averaged, mean of 2 arrays, mostly near background
# Residues (chain): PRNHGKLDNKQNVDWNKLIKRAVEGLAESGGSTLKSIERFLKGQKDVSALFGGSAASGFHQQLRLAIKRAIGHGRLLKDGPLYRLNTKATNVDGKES
Sequence,E-score
GTATTCAA,0.226
AAGGCACT,0.0602
CCTCGTGC,0.164
GGCCAGTA,0.0271
AACTCTAA,-0.0371
ACAAATCT,0.0529
ATCAGGTA,0.056
ATCAATCA,0.0518
AATCGCGA,0.1
AAATTTCA,-0.104
GCCATCAC,-0.155
CCGGGGTA,-0.0589
CAGCAAAC,0.147
AGAGGTGC,-0.165
GAGAGCGA,0.0839
CAGACAAC,-0.0681
GTACCATA,-0.0653
TAAAAGAA,0.00266
AGCAGGGC,0.0829
GCCACAAA,0.176
CGAGTCGC,0.0674
CGGCGCAA,0.0823

# Sample 4 — technique: RNA Bind-n-Seq; molecule type: RNA; matrix: in vitro; concentration: 365 nM; relative to: no-protein control; reading: higher = stronger binding
# Target: RNA binding protein fox-1 homolog 2, RRM domain, GST-SBP tag (RBFOX2, Homo sapiens, UniProt O43251-10, residues 100-194)
# Setting: natural RNA segment, single round, ends assumed
# Target sequence (chain): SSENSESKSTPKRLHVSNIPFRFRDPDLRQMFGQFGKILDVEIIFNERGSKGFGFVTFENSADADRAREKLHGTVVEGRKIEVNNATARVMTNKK
Sequence,RBNS enrichment (R)
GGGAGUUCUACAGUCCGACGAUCGCCGCUGCCGGCCCCUCCUCAGACUCCGCCUUUGGGAGCACACCUGCUUUGCCUUGCUGCCUGUGCAAAUGUUGGACAAGCAGACACACUCACACUCGUCCCCAGCUUAGUGGAAUUCUCGGGUGCCAA,0.431
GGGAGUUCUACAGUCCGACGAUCUUGGUUUUGGUUUUUUGUUCUUCAUACUCAAGUGUCUCCGUUGGUCCAGAUACUUCUCUGUGAAAGUGGCCUCUCUACAGGGUGCCGUUCUGUUUUUUCCCAGUAGUACAUGGAAUUCUCGGGUGCCAA,0.57
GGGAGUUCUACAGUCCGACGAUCUUACAUUUCCUUGAUAGCUAAUGAUGAGCAUUUUUCAUGUGCUUAUGGGCCGUUUAUAUACCUUUGGUGAAAUGUCUAUUUAAAUCUUUUGCUCACUUUUCAGUUGGGUUUGGAAUUCUCGGGUGCCAA,0.698
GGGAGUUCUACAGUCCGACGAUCUAUGUUUUCCUGUACUAGAUGGCUAGGAUUCCAGAGAAUUACUAUAAAGUAUUUUCAACACACCUGACAUUGCAUUUCUCAUUUUUUAAGAUUUUUUUUUUAAUUUUUAAUGGAAUUCUCGGGUGCCAA,0.7
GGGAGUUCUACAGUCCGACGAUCAAGGUGUAAGGUUUCCUAAGGGAUUACAACACAGUGGUUUCCUGGUCUCUCUCCCUGUCAUCAAUCAGGGUAGUAACUUGACUUAAGAAUACCACUUUUUAGAAAAAUUAUGGAAUUCUCGGGUGCCAA,0.243
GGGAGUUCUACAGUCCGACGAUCACGGGAGCUUAACUUUAUAAGGAAAUGUAUUUUGACACUGAUAUCUUAUUAAAGUAUUCUGAUCCUAUCCUGCUCGUGCCUCUUGUUUUCUGUGCAUUUACCGUGGACUGUGGAAUUCUCGGGUGCCAA,1.17
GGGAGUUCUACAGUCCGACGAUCAGGUGGAGUGGAGUGUGGCAUGCAGGCUCUGUGGGGGCGCCAGUGCUCAGUUAGUUGUUGGUUAUUUAAAGCACACUCAGUUUGCACUCAUUUCCCCUAAACAACUGGCAUGGAAUUCUCGGGUGCCAA,5.79
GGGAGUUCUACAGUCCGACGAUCUUGACAUUUGUUUGGUUAUAGUGCAAUAUAUUUUGUAUGCAAGCAGUUUCAAUAAAGUUUGAUCUUCCUCUGCUAAAUUGAUGUUGAUGCAAUCCUUACAAAUGAUUGCUUGGAAUUCUCGGGUGCCAA,0.321
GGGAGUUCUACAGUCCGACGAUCCUUCAGAACUCACAGGACAGGGAUUGCUGGAGAACACUGCGAGCUGUGGAGCACACUUAAGGGAUGGGAUGGUCAGAGGCGCUCCCGAGCAAGCGGGGCAUCAUUCUCCCUGGAAUUCUCGGGUGCCAA,0.896
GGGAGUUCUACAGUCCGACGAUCCCAAAUAUUCAGUACCUUGGGCAAUCCAGGAAGGGUUUAAAGAGACCUGUUGCUGCAUAGAACUCUCCCUGCCCUACCCCUUAACUCCACCUUAGUGCCAGGGCCGAGGGUGGAAUUCUCGGGUGCCAA,0.256
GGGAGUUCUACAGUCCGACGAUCUUUGAAUACAAUGCUACAUAUGAAUGUUGAAGCUGAUACAUUGCACAGUUCUGUAGACAUCACUACACCGAUGUAGUUUCUCAAAUUUUAGCAAUAUGCUCUACAUAAAAUGGAAUUCUCGGGUGCCAA,8.69
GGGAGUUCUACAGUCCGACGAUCCUCAGGCAAAGAGGGGAAAAUCCAUAAAAGAGGUGGAAAAUGCAUUUAGUUUUUUCAUUUUGUUCUACUUUAUUAAAAAGGUUGGGUGUUCUAGUUCUUGGUUUCUCAUAUGGAAUUCUCGGGUGCCAA,0.948

# Sample 5 — technique: protein-binding microarray; molecule type: double-stranded DNA, one strand shown; matrix: in vitro; concentration: not given; reading: higher = stronger binding
# Target: Protein max, full length (MAX, Homo sapiens, UniProt P61244-2, residues 1-151)
# Setting: k-mer, scored over probes, only values ≥0.25
Sequence,E-score
ACGAGCGT,0.288
ATCACGTG,0.495
CGCGTGGA,0.45
CATGCGAA,0.257
CCGCCCCA,0.356
CACGAGTC,0.373
GCCTGCAC,0.253
ACGAGCAT,0.308
TGCACGCA,0.34
ATGCGCAC,0.361
ACGCTGCC,0.299
CGTGGCGC,0.378
CGTGTCTC,0.397
GCCATGCA,0.315
CACGCTCA,0.327
CGGGTGGC,0.266
AGTGTGCA,0.254
CCCCGTGC,0.415
AGCACGCT,0.429
CTGTCACA,0.255
CACGTGTC,0.495
AAACGTGC,0.416
AGCGTGTC,0.379
ATTCATGC,0.289
CCCCTCCC,0.25

# Sample 6 — technique: competition protein-binding microarray; molecule type: double-stranded DNA, one strand shown; matrix: in vitro; concentration: 2 µM; together with: Cbf1 competitor, 0.05 µM; reading: higher = stronger binding
# Target: Phosphate system positive regulatory protein PHO4, full length, GST-tagged (PHO4, Saccharomyces cerevisiae, UniProt P07270, residues 1-312)
# Setting: whole 60-bp probe, lowest competitor level
# Target sequence (chain): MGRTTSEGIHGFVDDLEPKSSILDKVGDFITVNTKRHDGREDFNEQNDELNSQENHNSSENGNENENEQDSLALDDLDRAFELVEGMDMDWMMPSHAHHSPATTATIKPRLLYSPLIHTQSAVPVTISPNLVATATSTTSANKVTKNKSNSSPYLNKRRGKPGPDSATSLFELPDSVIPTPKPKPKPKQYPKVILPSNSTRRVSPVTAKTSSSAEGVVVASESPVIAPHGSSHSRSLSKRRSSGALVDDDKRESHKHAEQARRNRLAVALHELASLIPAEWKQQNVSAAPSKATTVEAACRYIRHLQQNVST
Sequence,fluorescence intensity [a.u.]
AGGGCTCAGAACCTGCAGGTGAAGAAGCGCTTTAGAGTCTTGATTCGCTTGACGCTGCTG,3290
CTGCCTTTATTTATTACCGTGCCAGACAAAGGGGCTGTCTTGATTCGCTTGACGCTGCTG,4900
GACGGAACCGTTCCGCTCGTGGCCGATTCAATGTGTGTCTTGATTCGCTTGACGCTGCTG,10300
TGCAGTTCTTCAGCAAACGTGATGGGCAAAACAACGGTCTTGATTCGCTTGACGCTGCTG,9420
TAAGTCATTAAGCGTCATGCCAGGTTTTCTTGGAAGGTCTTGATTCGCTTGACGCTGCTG,4490
CATACCCAACCTTGCACGGTGGGTGAAGATATTTGTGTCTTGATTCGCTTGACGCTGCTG,8210
CGGGGTTAAGTTTGCGTTGTGGGTGGCTTGCAGCAGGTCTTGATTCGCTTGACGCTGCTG,5160
GCTCATCCTTCTGTTCATGCGTGAAGGCTGAATTATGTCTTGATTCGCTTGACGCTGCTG,5670
CTTTCCCGATCTTGAGGCGTGGGTGTAGCACATTTGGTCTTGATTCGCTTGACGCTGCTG,8850
ACATCGACGTTATCGCACGTGTGGATGTGTAAGTGGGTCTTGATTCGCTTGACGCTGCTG,18800
CTAACGAAGGTTTGTATGGTGGGTGACAAGCCAAGTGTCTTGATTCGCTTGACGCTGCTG,4290
TCTTTCATTAATCGCCACCTGATGTTTTTCGCTGCTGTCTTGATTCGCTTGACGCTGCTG,3970
CTTCTGTAAATTTGAACTGTGGGTGGACGCGCCCCGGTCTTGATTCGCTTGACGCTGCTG,4070
CCCAAACTCCCTTTACACATGCTGCTCCATCGCGGGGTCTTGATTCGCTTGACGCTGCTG,7710
TTGGACAAGCTGGCACACCTGATCGACGAGACACCGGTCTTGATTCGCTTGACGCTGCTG,4710
ACAACGGGGAACCGCACCGTGATGGCACCTAGCCCAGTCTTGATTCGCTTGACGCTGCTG,5250
GTCTTGTCTCATTGACCGGTGGGTGTCCCCACTTCAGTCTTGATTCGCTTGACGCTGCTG,4000
CAGTTCTCGACCCATCACGTGTGTTCTCGTTTAGCGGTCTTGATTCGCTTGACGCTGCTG,17400

# A few entries again (sample 1):
Sequence,E-score
CTCGAGGA,-0.18
CACACAAA,0.0918
ATGCGTCA,0.0622
AGTCGACC,-0.205
GGTACGAC,-0.237
CCCGGCCA,-0.359
CAAGGGAC,-0.228
GACCCGAC,-0.28
ACAAGTCA,0.0367
TGTTTCAA,0.272
AGTGTGCA,0.0254
ACCCCCGA,0.0275
CTATAGCC,-0.0656
ACATAGGG,-0.078
ATCTAATA,0.336
AACCTACG,-0.0302
CAAAAGAG,0.0246
GCGTGTTA,0.0906
CCCGAGTC,-0.159
CCGGCCTA,-0.135
AAGTTGCG,-0.0711
ACGACTTG,-0.0538
